Assay results collected from several papers.
Every numbered part comes from another study and shows a few of its results, in no order. Positions count from the first letter of the parent shown.

Set 1 — technique: protein-binding microarray; molecule type: double-stranded DNA, one strand shown; matrix: in vitro; concentration: 940 nM top; setting: 60-bp whole probe; together with: salmon DNA 0.4 mg/ml; reference: random background probes; reading: higher = stronger binding; measurement: fitted relative affinity; shared flanks, not repeated: GCCTAGCAC … GTCTTGATTCGCTTGACGCTGCTG
Target: Interferon regulatory factor 5, full length, phosphomimetic (IRF5, Homo sapiens, UniProt Q13568-2, residues 1-514, S451D/S453D/S456D/S462D)
Strand = GACGATATCAGTCTCGAAACGTGCTAG; result = 1.17 z-score
Strand = TTAGATTTCGGGACTGGATTCGTGCTA; result = 0.674 z-score
Strand = CAGGGGCTGCCTGGATGCCGGTGCTAG; result = -1.14 z-score
Strand = TTCGTTTTGTGTCTGGGCATGTGCTAG; result = 0.245 z-score
Strand = GTAGGTTTCGGTCTCGGTTAGTGCTAG; result = 14.5 z-score
Strand = GACGGTTCCGGTTTCGGAACGTGCTAG; result = 6.02 z-score
Strand = TCACACCTCTAGACTCTAACTGTGCTA; result = 0.607 z-score
Strand = TTAGGACTGGGGTAACGGTTAGTGCTA; result = -0.17 z-score
Strand = GACGTTATCGACTTTCGGGACGTGCTA; result = 0.688 z-score

Set 2 — technique: protein binding microarray; molecule type: double-stranded DNA, one strand shown; matrix: in vitro; concentration: not given; reference: not given; reading: higher = stronger binding; measurement: E-score
Target: Histone acetyltransferase KAT6A, both winged helices, GST fusion (KAT6A, Homo sapiens, UniProt Q92794, residues 1-181)
Setting: 8-mer, flanks averaged, mean of 2 arrays, mostly near background
Construct (chain): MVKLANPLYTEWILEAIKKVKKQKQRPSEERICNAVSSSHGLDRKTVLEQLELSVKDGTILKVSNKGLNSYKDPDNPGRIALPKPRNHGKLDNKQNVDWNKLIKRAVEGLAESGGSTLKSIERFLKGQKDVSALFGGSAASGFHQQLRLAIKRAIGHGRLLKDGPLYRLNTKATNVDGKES
Strand = CTACTATA; result = -0.0461
Strand = AGTAACTC; result = -0.175
Strand = CTCTGCAC; result = -0.0811
Strand = GCGAACAC; result = 0.0798
Strand = GGACTAAA; result = 0.0502
Strand = GTTCTAAA; result = -0.0173

Set 3 — target: CCNB1, cyclin fold, Cln2 fusion (human); technique: yeast growth competition, sequencing; matrix: yeast; setting: strong parent motif; reference: not given; reading: higher = stronger binding; measurement: normalised enrichment score
Starting sequence: E2F1 docking peptide (human); PPVKRRLDLETDH
Variant = K4W; result = 0.272
Variant = P1Q; result = 1.73
Variant = V3S; result = 0.629

Mixed results
Molecule = PhoQ, residues 284 288 289 292 302 303 SLSLLA; target = PhoP, residues 12 14 15 18 19 LQHIR (Escherichia coli, UniProt P23836); test = Sort-seq, item: YFP reporter; system = E. coli; setting = PhoQ-PhoP variant library, together with: 10 µM Mg2+; scale = reference: high Mg2+ state, higher = stronger signaling; measurement = fold induction; result = 11.3

Excerpt of the above (set 1):
Strand = TTCGTTTTGTGTCTGGGCATGTGCTAG; result = 0.245 z-score
Strand = GTAGGTTTCGGTCTCGGTTAGTGCTAG; result = 14.5 z-score
